Published values gathered from unrelated publications.
Numbered parts are unrelated; each lists some results of a single study. Changes are numbered by the printed parent chain.
Sequence of UniProt Q9C5W9 (whole entry, looked up): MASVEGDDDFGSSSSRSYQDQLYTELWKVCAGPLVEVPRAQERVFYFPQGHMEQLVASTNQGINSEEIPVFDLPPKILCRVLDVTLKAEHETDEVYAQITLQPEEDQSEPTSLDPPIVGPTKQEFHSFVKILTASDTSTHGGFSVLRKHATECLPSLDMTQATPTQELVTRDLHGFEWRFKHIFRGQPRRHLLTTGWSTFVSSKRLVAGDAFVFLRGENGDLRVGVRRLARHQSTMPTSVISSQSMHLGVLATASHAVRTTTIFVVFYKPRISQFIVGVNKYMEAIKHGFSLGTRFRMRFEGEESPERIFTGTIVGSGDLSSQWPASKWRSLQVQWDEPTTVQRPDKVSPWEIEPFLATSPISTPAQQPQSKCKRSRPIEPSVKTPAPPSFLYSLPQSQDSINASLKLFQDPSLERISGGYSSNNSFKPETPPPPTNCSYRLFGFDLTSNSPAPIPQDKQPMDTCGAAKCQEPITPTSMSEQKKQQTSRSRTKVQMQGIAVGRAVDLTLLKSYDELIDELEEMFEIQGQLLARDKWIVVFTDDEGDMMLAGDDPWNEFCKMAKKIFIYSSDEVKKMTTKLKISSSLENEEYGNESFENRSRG
Sequence of UniProt O24409 (whole entry, looked up): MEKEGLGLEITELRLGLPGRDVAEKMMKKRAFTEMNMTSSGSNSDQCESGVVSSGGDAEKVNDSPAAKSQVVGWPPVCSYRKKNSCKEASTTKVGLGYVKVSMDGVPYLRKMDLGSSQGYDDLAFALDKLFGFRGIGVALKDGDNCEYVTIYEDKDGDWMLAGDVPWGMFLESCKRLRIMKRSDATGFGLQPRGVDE
Sequence of UniProt Q38831 (whole entry, looked up): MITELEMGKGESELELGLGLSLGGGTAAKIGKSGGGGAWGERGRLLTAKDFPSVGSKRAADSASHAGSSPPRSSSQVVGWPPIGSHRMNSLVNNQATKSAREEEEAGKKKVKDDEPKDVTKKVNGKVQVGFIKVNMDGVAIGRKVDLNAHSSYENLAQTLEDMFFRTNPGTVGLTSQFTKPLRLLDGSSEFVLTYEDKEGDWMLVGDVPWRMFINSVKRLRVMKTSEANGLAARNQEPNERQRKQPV
Sequence of UniProt Q93YR9 (whole entry, looked up): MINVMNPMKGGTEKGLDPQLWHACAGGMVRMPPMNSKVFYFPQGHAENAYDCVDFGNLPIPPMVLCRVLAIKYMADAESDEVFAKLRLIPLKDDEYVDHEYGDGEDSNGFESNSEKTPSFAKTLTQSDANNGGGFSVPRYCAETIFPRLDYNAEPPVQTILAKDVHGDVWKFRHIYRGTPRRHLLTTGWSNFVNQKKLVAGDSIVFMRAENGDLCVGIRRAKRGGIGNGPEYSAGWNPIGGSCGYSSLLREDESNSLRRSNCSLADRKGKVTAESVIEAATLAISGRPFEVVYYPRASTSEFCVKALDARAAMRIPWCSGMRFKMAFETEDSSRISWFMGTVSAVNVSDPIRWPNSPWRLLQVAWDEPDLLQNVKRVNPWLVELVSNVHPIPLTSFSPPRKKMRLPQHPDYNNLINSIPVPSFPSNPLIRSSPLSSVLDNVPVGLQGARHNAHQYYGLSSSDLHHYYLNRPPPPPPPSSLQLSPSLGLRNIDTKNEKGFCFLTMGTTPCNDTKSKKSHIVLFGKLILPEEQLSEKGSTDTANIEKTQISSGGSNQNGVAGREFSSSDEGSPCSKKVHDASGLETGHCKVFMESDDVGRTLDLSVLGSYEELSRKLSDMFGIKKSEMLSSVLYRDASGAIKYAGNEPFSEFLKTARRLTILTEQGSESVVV
Sequence of UniProt Q9SKN5 (whole entry, looked up): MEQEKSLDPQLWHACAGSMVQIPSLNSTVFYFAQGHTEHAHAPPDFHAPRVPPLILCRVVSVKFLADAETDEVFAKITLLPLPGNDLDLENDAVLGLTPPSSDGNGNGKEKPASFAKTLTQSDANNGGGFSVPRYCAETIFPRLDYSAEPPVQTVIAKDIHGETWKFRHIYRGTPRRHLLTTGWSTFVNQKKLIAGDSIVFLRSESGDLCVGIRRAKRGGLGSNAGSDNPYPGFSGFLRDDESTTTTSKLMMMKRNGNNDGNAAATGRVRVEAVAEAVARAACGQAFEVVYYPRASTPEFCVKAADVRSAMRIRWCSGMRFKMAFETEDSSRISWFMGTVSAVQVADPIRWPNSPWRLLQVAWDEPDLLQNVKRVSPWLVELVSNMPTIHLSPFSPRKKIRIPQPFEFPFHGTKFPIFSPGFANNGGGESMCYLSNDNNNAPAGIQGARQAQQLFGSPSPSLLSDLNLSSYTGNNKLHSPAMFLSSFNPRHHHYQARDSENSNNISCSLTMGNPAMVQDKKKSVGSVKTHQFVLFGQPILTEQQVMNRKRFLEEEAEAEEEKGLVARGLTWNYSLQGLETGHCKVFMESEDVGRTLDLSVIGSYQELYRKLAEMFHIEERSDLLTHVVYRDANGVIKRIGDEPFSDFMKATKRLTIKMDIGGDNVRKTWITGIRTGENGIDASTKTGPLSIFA
Sequence of UniProt Q38829 (whole entry, looked up): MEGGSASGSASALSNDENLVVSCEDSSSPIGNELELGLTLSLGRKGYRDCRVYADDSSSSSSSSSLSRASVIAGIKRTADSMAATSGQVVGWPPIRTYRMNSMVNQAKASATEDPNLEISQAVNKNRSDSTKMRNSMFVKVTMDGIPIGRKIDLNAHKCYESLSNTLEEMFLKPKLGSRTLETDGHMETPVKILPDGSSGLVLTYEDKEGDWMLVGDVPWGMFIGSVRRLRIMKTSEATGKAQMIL
Sequence of UniProt P93022 (whole entry, looked up): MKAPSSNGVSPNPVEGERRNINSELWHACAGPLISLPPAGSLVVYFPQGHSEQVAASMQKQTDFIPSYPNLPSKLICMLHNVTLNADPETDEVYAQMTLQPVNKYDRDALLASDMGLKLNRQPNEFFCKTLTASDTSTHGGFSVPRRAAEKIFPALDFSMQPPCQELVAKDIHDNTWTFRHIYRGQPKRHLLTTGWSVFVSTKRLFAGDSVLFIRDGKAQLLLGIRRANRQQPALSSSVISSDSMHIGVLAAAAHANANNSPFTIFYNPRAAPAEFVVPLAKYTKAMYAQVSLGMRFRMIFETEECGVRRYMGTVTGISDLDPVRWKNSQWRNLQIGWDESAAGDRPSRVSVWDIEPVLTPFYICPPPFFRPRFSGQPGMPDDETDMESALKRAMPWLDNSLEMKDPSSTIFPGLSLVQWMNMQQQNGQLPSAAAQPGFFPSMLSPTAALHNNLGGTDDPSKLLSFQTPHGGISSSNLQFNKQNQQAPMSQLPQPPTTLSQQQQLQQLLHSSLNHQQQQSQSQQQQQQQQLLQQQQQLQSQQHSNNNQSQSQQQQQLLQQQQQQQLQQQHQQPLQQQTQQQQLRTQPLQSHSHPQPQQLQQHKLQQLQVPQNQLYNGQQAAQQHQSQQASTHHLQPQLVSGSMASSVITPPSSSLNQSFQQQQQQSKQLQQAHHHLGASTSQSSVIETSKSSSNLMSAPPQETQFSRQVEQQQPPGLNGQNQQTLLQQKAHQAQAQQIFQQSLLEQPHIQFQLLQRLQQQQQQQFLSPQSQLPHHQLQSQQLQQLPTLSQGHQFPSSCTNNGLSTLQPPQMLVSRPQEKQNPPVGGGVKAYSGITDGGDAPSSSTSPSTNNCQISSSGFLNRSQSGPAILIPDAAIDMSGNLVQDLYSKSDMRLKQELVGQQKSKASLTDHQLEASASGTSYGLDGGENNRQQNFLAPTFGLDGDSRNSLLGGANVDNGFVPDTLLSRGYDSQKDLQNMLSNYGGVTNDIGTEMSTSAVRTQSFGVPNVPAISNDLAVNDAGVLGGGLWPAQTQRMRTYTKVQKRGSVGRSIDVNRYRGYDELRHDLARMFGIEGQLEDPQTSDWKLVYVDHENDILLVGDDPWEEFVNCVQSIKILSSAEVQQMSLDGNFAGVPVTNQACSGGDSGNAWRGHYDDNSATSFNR

Set 1
Target: ABI1, truncated, D143A, DHFR fusion (Arabidopsis thaliana)
Method: DHFR PCA, deep sequencing
Medium: yeast
Notes: methotrexate growth selection, single substitutions
Added: (+)-ABA 4.8 µM
Relative to: wild-type fitted maximum
Direction: higher = stronger binding
Starting sequence: PYL1, truncated, DHFR fusion (Arabidopsis thaliana); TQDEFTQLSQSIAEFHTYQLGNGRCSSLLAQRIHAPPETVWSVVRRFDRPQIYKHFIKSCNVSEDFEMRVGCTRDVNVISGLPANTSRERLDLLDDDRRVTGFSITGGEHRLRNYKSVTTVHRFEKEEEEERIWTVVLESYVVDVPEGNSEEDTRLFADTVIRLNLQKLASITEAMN
Change | relative binding score [%]
I52P | -0.193
V40W | 8
D92Y | 6.45
R155S | 6.46
V145R | 4.4
S104T | 73.8
L29Q | 29.1
M176L | 69.2

Set 2
Molecule: B1 (IAA7)
Method: two-hybrid
Direction: higher = firmer interaction
B1: IAA7 (Arabidopsis thaliana, UniProt Q38825); chain MIGQLMNLKATELCLGLPGGAEAVESPAKSAVGSKRGFSETVDLMLNLQSNKEGSVDLKNVSAVPKEKTTLKDPSKPPAKAQVVGWPPVRNYRKNMMTQQKTSSGAEEASSEKAGNFGGGAAGAGLVKVSMDGAPYLRKVDLKMYKSYQDLSDALAKMFSSFTMGNYGAQGMIDFMNESKLMNLLNSSEYVPSYEDKDGDWMLVGDVPWEMFVESCKRLRIMKGSEAVGLAPRAMEKYCKNRS
partner | notes | relative to | positive tests
ARF18 482-602 (Arabidopsis thaliana, UniProt Q9C5W9) | – | out of 2 tests | 1
ARF7 1030-1164 (Arabidopsis thaliana, UniProt P93022) | – | out of 4 tests | 4
ARF10 575-693 (Arabidopsis thaliana, UniProt Q9SKN5) | – | out of 4 tests | 0
ARF16 570-670 (Arabidopsis thaliana, UniProt Q93YR9) | – | out of 4 tests | 0
IAA13 (Arabidopsis thaliana, UniProt Q38831) | – | out of 4 tests | 2
IAA11 (Arabidopsis thaliana, UniProt Q38829) | weak activation fusion | out of 4 tests | 0
IAA19 (Arabidopsis thaliana, UniProt O24409) | – | out of 4 tests | 1

Set 3
Target: Myc proto-oncogene protein, bHLH-zipper, MAX partner unstated (MYC, Homo sapiens, UniProt P01106, residues 368-449)
Sequence of UniProt P01106 (368-449, looked up): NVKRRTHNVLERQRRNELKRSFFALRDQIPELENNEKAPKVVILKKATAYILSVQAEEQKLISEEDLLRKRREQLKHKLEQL
Method: protein-binding microarray
Molecule type: double-stranded DNA, one strand shown
Medium: in vitro
Concentration: not given
Notes: k-mer, scored over probes, only values ≥0.25
Direction: higher = stronger binding
Strand | E-score
CATGGTCC | 0.394
ATGCGCCG | 0.279
ACATGAGA | 0.272
CATGGGAC | 0.333
AGGCCATG | 0.314
CATGGCCA | 0.355
CACATGTC | 0.458
CACGCGAC | 0.446

Further values, each from its own experiment
Molecule | target | observed | molecule type | concentration | quantity | value
EELRSLFNTV | HLA class I histocompatibility antigen, A alpha chain, allele A*26:03 (Homo sapiens, UniProt P04439) | peptide-MHC binding | peptide | concentration not given | binding | inactive

Excerpt of the above (set 2):
partner | notes | relative to | positive tests
ARF16 570-670 (Arabidopsis thaliana, UniProt Q93YR9) | – | out of 4 tests | 0
IAA13 (Arabidopsis thaliana, UniProt Q38831) | – | out of 4 tests | 2
ARF10 575-693 (Arabidopsis thaliana, UniProt Q9SKN5) | – | out of 4 tests | 0
